# Assay results from different studies.
# Lines come from different studies, so protocols differ.
# PIK3CA with p85 alpha: Phosphatidylinositol 4,5-bisphosphate 3-kinase catalytic subunit alpha isoform, with p85 alpha (PIK3CA, Homo sapiens, UniProt P42336)
# PIK3CA: Phosphatidylinositol 4,5-bisphosphate 3-kinase catalytic subunit alpha isoform (PIK3CA, Homo sapiens, UniProt P42336)
# PIK3CA E545K: Phosphatidylinositol 4,5-bisphosphate 3-kinase catalytic subunit alpha isoform (PIK3CA, Homo sapiens, UniProt P42336, E545K)
# PIK3CA C420R: Phosphatidylinositol 4,5-bisphosphate 3-kinase catalytic subunit alpha isoform (PIK3CA, Homo sapiens, UniProt P42336, C420R)
Structure (SMILES),target,assay,system,conditions,scale,quantity,value
C=CC(=O)N1Cc2nc(-c3cc(-c4cc(Cl)cnc4Cl)c(F)cc3F)n(-c3ccncn3)c2C1,PIK3CA with p85 alpha,kinome panel,,1 µM,,inhibition,-17.9%
CN1CC[C@@H](COc2cnc(C#N)cc2-c2ccn3nc(NC(=O)C4CC4)cc3c2)C1,PIK3CA with p85 alpha,"inhibitor, KinaseProfiler panel",,1 µM,,inhibition,-1%
Nc1ncc2c(n1)-c1c([nH]c3ccc(C4=CCOCC4)cc13)CCC2,"Phosphatidylinositol 4,5-bisphosphate 3-kinase catalytic subunit alpha isoform (PIK3CA, Homo sapiens, UniProt P42336, E545A)","binding, competition with immobilised ligand",,1 µM,,remaining binding,100%
C=CC(=O)N1CCc2ccc(-n3c(=O)ccc4cnc5ccc(-c6cnn(C)c6)cc5c43)cc21,PIK3CA,KINOMEscan,,1 µM,baseline: DMSO control,remaining binding,95%
CNC(=O)C1CCN(c2cc(C)c(F)cc2NC(=O)c2ccc(-c3cc(O)ccc3C)c(C)c2)CC1,PIK3CA E545K,"binding, competition with immobilised ligand",,1 µM,,remaining binding,97%
CC(C)=CC1OC(C)(C)C2C=C3C(=O)C(Cl)=CC(O)C3C3C(O)C4OC4C(=O)C132 (stereo not shown),PIK3CA C420R,"cell-free assay, competition with immobilised ligand",,10 µM,,remaining binding,66%
CCN1CCN(Cc2ccc(C(=O)Nc3ccc(C)c(NCc4cnc5[nH]ccc5c4OC)c3)cc2C(F)(F)F)CC1,"Phosphatidylinositol 4,5-bisphosphate 3-kinase catalytic subunit alpha isoform (PIK3CA, Homo sapiens, UniProt P42336, H1047Y)","binding, competition with immobilised ligand",,1 µM,,remaining binding,71%
Cc1cnc2nc1Nc1cccc(c1)COC/C=C/COCc1cc(ccc1OCCN1CCOCC1)N2,PIK3CA,binding,,0.1 µM,,remaining binding,96%
CNC1C[S+]2CC[S+]3CC[S+](C1)[Ru-4]321([N]=C=S)[n]2c3ccc(OC)cc3c3c4c(c5cc(F)c[n+]1c5c32)C(=O)NC4=O (stereo not shown),"Phosphatidylinositol 4,5-bisphosphate 3-kinase catalytic subunit alpha isoform (PIK3CA, Homo sapiens, UniProt P42336, H1047L)",KinomeScan,,0.1 µM,baseline: untreated,remaining binding,95%
Cc1ccc(-c2c(/C=C(\C#N)C(=O)NC(C)C)n(CCCO)c3ncnc(N)c23)cc1,PIK3CA C420R,"cell-free assay, competition with immobilised ligand",,1 µM,,remaining binding,100%
COc1c(Cl)cccc1Nc1c(-c2ccncc2C#C[C@@]2(C)CCCN2C(=O)/C=C/CN(C)C)[nH]c2c1C(=O)NCC2,PIK3CA E545K,"binding, competition with immobilised ligand",,3 µM,,remaining binding,76%
CC(=O)c1cnc(N)nc1N1CC[C@H]1c1nn2ccc(Cl)c2c(=O)n1-c1ccccc1,PIK3CA,KiNativ,Jurkat cell lysate,"1 µM, 0.25 h",,target engagement,-7.6%
CN1CCN(Cc2ccc(-c3ccc(CO[C@H]4CCC[C@@H]4NC(=O)c4cc(-c5cnn(C)c5)cnc4N)cc3)cc2)CC1,PIK3CA with p85 alpha,SelectScreen kinase profiling,,0.1 µM,,inhibition,-11%
O=c1c(-c2ccc(Cl)c(CN3CCOCC3)c2)coc2cc(O)ccc12,"Phosphatidylinositol 4,5-bisphosphate 3-kinase catalytic subunit alpha isoform, with p85 (PIK3CA, Homo sapiens, UniProt P42336, E542K)","enzyme activity, inhibitor",,1 µM,,remaining activity,100%
Cc1nc2c(F)cc(-c3nc(Nc4ccc(CNC(=O)CCCCCCC(=O)NO)cc4)ncc3F)cc2n1C(C)C,"Phosphatidylinositol 4,5-bisphosphate 3-kinase catalytic subunit alpha isoform, with p85 (PIK3CA, Homo sapiens, UniProt P42336, E545K)","enzyme activity, inhibitor",,1 µM,,inhibition,25%
C=CC(=O)N1CCCC(n2c(=O)c3ncccc3n(Cc3ccc(Oc4ccccc4)cc3)c2=O)C1 (stereo not shown),"Phosphatidylinositol 4,5-bisphosphate 3-kinase catalytic subunit alpha isoform (PIK3CA, Homo sapiens, UniProt P42336, Q546K)","cell-free assay, competition with immobilised ligand",,1 µM,,remaining binding,67%
